Results collected from several papers.
A part holds a random share of what one study measured. Positions count from the first letter of the parent shown.

Series 1
Target: Prothrombin, mature alpha-thrombin (F2, Homo sapiens, UniProt P00734)
Method: aptamer microarray, sandwich
Form: DNA with 2'F-ANA
Sample: in vitro
Concentration: 200 nM
Notes: whole 15-mer aptamer, many near background
Together with: Cy3 exosite-II aptamer, 400 nM
Reading: higher = stronger binding
Endpoint: mean fluorescence intensity
Sequence: GGTTGGTGTGGTTGG
Modification = 2'F-ANA at 2 5 6 8 9 13 14; result = 46.4 a.u.
Modification = 2'F-ANA at 1 2 3 5 6 7 8 9 10 11 13 14; result = 48.6 a.u.
Modification = 2'F-ANA at 1 2 3 4 9 10 12 13 14; result = 53.3 a.u.
Modification = 2'F-ANA at 2 4 5 10 11 12; result = 50.1 a.u.
Modification = 2'F-ANA at 1 2 6 7 8 9 13 14; result = 109 a.u.
Modification = 2'F-ANA at 1 2 3 4 7 10 12 15; result = 77.9 a.u.
Modification = 2'F-ANA at 1 2 4 5 8 12 15; result = 159 a.u.
Modification = 2'F-ANA at 5 6 7 9 11 12 13 14 15; result = 59.9 a.u.
Modification = 2'F-ANA at 1 3 5 7 11 12 14; result = 48.4 a.u.
Modification = 2'F-ANA at 2 3 4 10 11 12 13 14 15; result = 166 a.u.
Modification = 2'F-ANA at 2 3 4 5 8 10 13 14; result = 48.1 a.u.
Modification = 2'F-ANA at 4 6 7 11 12 13 14 15; result = 87 a.u.
Modification = 2'F-ANA at 1 7 10 11 12 13; result = 66.5 a.u.
Modification = 2'F-ANA at 1 2 8 9 11 15; result = 170 a.u.
Modification = 2'F-ANA at 2 6 9 11 12 13 15; result = 380 a.u.
Modification = 2'F-ANA at 1 2 3 6 10 11 13 14 15; result = 63.8 a.u.
Modification = 2'F-ANA at 2 5 6 7 8 11 12 14; result = 48.3 a.u.

Series 2
Target: CCNB3, cyclin fold, Cln2 fusion (human)
Method: yeast growth competition, sequencing
Sample: yeast
Notes: weak parent motif
Baseline: not given
Reading: higher = stronger binding
Endpoint: normalised enrichment score
Starting sequence: WEE1 docking peptide (human); HKTFRKLRLFDTP; partner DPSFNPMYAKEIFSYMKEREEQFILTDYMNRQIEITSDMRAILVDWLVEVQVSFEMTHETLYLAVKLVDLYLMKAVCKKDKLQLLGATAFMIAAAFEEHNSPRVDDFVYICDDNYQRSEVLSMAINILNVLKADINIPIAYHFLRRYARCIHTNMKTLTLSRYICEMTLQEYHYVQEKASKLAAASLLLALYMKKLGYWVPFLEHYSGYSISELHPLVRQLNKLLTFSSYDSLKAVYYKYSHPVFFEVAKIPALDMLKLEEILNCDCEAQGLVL
Variant = L7Q; result = 0.545
Variant = L9F; result = 0.172
Variant = D11L; result = 0.395
Variant = F4R; result = 0.112
Variant = L9E; result = 0.224
Variant = K6V; result = -0.00619
Variant = H1T; result = 0.518
Variant = R8I; result = 1.14
Variant = H1I; result = 1.12
Variant = T12H; result = 0.531
Variant = R8A; result = -0.113
Variant = L9H; result = -0.164
Variant = F10I; result = 0.104
Variant = K2V; result = 0.14
Variant = R5C; result = -0.253
Variant = K6T; result = -0.117
Variant = K2I; result = 0.106
Variant = T3F; result = 0.0486
Variant = F10N; result = -0.0938
Variant = R8W; result = 0.629
Variant = D11N; result = -0.666
Variant = L9N; result = 0.0803
Variant = H1R; result = -0.0623
Variant = L7G; result = 0.453
Variant = T3V; result = 0.858

Series 3
Target: RNA binding protein fox-1 homolog 2, RRM domain, GST-SBP tag (RBFOX2, Homo sapiens, UniProt O43251-10, residues 100-194)
Method: RNA Bind-n-Seq
Form: RNA
Sample: in vitro
Concentration: 365 nM
Notes: natural RNA segment, single round, ends assumed
Baseline: no-protein control
Reading: higher = stronger binding
Endpoint: RBNS enrichment (R)
All sequences stand within: GGGAGUUCUACAGUCCGACGAUC … UGGAAUUCUCGGGUGCCAA
Construct (chain): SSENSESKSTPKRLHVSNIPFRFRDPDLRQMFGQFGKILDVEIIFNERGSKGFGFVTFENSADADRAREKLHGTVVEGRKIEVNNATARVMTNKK
Sequence = GAUUUAAGGCCAAGGGCCAGUGGGUGGCAUGGGGUGGCACUAAUCUUGUGUGUUGCUUGGACAUUUGCAAUUCAGAAGAUAAGCUAGAGAGGCUCUUACUAGGGCCCUCA; result = 1.37
Sequence = CCACUGGACCACUGGGGGCACAAUGGAGACUUCUCUUCAGAAUGGUUUUUGUUCUGUCUACCCUCUCAGGGAUAUGAGAUUCUCCCAGGCUUGUUUCCUGUCAGCCAUCU; result = 0.292
Sequence = UAAUCAGAUGCCAUUUUAUAUGUGGACGUAUUUAUACUGGCCAAACAGUUUUCUUAUUUUGUCCCCCCUUUUUUUCCCUUUUCAUUUGCUUUCUUGUCUUUUAACCUCGU; result = 1.2
Sequence = UGGAGCUAUCCCCUCCUCCCUCUUUUCUUUGCUUCCAGGGAUAUCCUUGCCUACCUCUUUCUAUCUCCCAGCAGCCCUCAGGUAGCAGUUGAUUUAUUUUACACCUCUGC; result = 0.884
Sequence = AGGUCCCAACUAAGUCUGGCCUGAGCUAAUUUAUUUGAGCGCAGAGUGUAAAAUUUAAUUCAAAAUGGUGGCUAUAAUCACUACAGAUAAAUUUCAUACUCUUUUGUCUU; result = 0.372
Sequence = GUGCUGUGGGGAAACAGAAGCGUUACAGACCGGGCCAGGCUGCCUGGCUGCUGCUCCCUCUGGGCUCAUAGCUGGCCCACUUGACGGUCCCUGGUGGCUUCUGGAGGGAA; result = 0.46
Sequence = UGACCCUUGCUCCCUGCUACACAGAGCAUCGCAGGGCUGGCCUGUGUGGUUUCCAGAUGAGGGUCUGGGUCCCGGAAGCUUGUGUUGAGAGCUCAGUGGACCCACCCCGC; result = 0.656
Sequence = AUGUUAGCCCAAGCUCAGGGUAGGCCCAGGGGGCUGGGAGAAAUGAAGCCACCCAUGGGGACUGGGGACCAGGGGCCUUCAGCAUGGCUUCUAGGUUCCCUCCUCCCCCU; result = 0.322
Sequence = CUCUUUUUCAGUUUUAUCUGUCAAUAGUAGCUACAUUUUUAAUGGGAGCACCUUUUAUCCCAAAGUGCUUUAUAAAUUGAGUGGACUGAUAUAUAUCACACCCAGGUAUC; result = 0.274
Sequence = CUUCUCUUGUCACACAGUGCCCCUUCCCCACGUGUCCUGUGGCUCCAGCCAUUACAGAGUGAAGGUGCAACCCCAUGUGGGAGCCCCACUAGUGACCACUCCCUGAGAGG; result = 0.206
Sequence = GGCAGGUGGGUGGCACAGCAUAAGAACCCAGCUGGGGCCAGCCCUCCCUGUCCUGGCUGGUCAGUGUGCCCCCACCCACACUGUCCAGCCCCUUAGCCCAUGUCAUGUCA; result = 1.25
Sequence = CCACAUCUACCGGUACUUGCCUAAACCCUGACUGUGCCAUCCCAAAGGCCUUGAUGUGAAUUUUCUUUGGUACAAAUAGGAAUGGCCCACUGAGGCAGAGGAGUAAGAGU; result = 0.433

Series 4
Target: Histone acetyltransferase KAT6A, winged helix 1, GST fusion (KAT6A, Homo sapiens, UniProt Q92794, residues 1-85)
Method: protein binding microarray
Form: double-stranded DNA, one strand shown
Sample: in vitro
Concentration: not given
Notes: 8-mer, flanks averaged, mean of 2 arrays, mostly near background
Baseline: not given
Reading: higher = stronger binding
Endpoint: E-score
Residues (chain): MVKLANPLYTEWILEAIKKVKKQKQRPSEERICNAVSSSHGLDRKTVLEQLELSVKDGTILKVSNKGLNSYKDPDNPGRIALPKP
Sequence = TGCGCCCA; result = 0.0464
Sequence = TAAGCATA; result = -0.149
Sequence = TGCATCCA; result = -0.253
Sequence = GAAAATTA; result = -0.184
Sequence = CGCAACAA; result = -0.0197
Sequence = CTAGCTTA; result = -0.158
Sequence = ACACCTGC; result = -0.0463
Sequence = GCCACTTA; result = -0.203
Sequence = GGATGGAC; result = -0.12
Sequence = GAAACCGA; result = 0.077
Sequence = GAGGTGAA; result = -0.0438
Sequence = CATTATGG; result = 0.0181
Sequence = CGGGGCGA; result = 0.138
Sequence = ACAGGCTC; result = -0.0314
Sequence = ATCATGTA; result = -0.182
Sequence = AGGTTGAT; result = -0.132
Sequence = AACACGCG; result = 0.264
Sequence = ACAATCTG; result = -0.165
Sequence = CCTCATAA; result = -0.195
Sequence = CACCCCTC; result = -0.13
Sequence = GACGATGC; result = 0.0573
Sequence = ATATACAG; result = -0.0833
Sequence = GTTCAACA; result = -0.014
Sequence = GGTCCTGA; result = -0.0238
Sequence = AGCTCATG; result = -0.0562

Series 5
Target: ABI1, truncated, D143A, DHFR fusion (Arabidopsis thaliana)
Method: DHFR PCA, deep sequencing
Sample: yeast
Notes: methotrexate growth selection, single substitutions
Together with: (+)-ABA 1.4 µM
Baseline: wild-type fitted maximum
Reading: higher = stronger binding
Endpoint: relative binding score
Starting sequence: PYL1, truncated, DHFR fusion (Arabidopsis thaliana); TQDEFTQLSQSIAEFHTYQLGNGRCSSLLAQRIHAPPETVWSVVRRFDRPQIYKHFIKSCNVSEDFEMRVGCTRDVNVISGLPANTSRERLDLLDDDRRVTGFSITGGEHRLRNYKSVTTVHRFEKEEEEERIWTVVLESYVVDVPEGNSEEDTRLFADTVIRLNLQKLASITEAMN
Variant = I172T; result = 15.8%
Variant = E131V; result = 52.5%
Variant = T135D; result = -0.318%
Variant = D159R; result = -13.6%
Variant = T120S; result = 75.2%
Variant = R32M; result = 47.3%
Variant = N22W; result = 17.8%
Variant = A158D; result = -1.03%
Variant = D144A; result = -0.0764%
Variant = R32F; result = 28%
Variant = Y141S; result = -5.54%
Variant = D65M; result = 20.5%
Variant = G81R; result = -2.54%
Variant = T1A; result = 64.5%
Variant = H110S; result = 23.6%
Variant = I52G; result = 6.74%
Variant = D159A; result = -10.4%
Variant = R132Q; result = 85.6%
Variant = T101E; result = -8.54%
Variant = N22A; result = 69.3%
Variant = P146H; result = 2.83%
Variant = T86H; result = 68.2%

Repeated from above (series 5):
Variant = D159R; result = -13.6%
Variant = A158D; result = -1.03%
Variant = I52G; result = 6.74%
Variant = T135D; result = -0.318%
Variant = E131V; result = 52.5%
Variant = P146H; result = 2.83%
Variant = N22A; result = 69.3%
Variant = R32M; result = 47.3%
